# Experimental data pooled from the literature.
# Each numbered part is a random draw from the data of one study; scales do not carry over between parts. Substitutions count along the parent as printed.

# Series 1 — method: RNA Bind-n-Seq; form: RNA; matrix: in vitro; tested at: 100 nM; relative to: input RNA pool; reading: higher = stronger binding
# Target: RING finger protein unkempt homolog, zinc fingers 1-6, SBP tag (UNK, Homo sapiens, UniProt Q9C0B0, residues 30-357)
# Sequence of UniProt Q9C0B0 (30-357, looked up): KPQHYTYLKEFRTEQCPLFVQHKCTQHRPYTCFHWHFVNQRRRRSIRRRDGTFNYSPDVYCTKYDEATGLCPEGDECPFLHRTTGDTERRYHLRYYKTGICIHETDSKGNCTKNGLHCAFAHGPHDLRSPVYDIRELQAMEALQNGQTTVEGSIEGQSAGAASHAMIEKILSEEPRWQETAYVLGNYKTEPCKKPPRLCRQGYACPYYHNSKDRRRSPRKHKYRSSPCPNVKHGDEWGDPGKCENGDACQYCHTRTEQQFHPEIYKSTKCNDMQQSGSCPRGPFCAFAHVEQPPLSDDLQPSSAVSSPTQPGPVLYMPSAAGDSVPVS
# Setting: RNA with constant flanks, vertebrate orthologous sites, ends assumed
# Shared flanks, not repeated: GGGAGUUCUACAGUCCGACGAUC … CAACAGAGGAUUGAGCAUCA
Strand,bound/input enrichment [ratio]
UCAUUGUACUGCAAAAAUUACCCUAGUUUUGAACUAGCCACAAUGAUAACUAGUCUGUGCUAGUAGGAUCAUUGACUAUUACCUUUUAAAUUACCUGCUUUGUCUGAUACCUGAAACCAA,1.96
GGGGCGGGCUCUGUAGGGAGCUGCUGGCCAUUUGGCAGCACUUGACUUACGACCUUGACAUGAUAGAUAGGUUUGUGGUUUUUUAAUUUAAAGAUGUUAAGACUUAAUCCGCUAAAAUUU,0.291
UAUAGUUUACAUUGUACUAAUGAACAUUUUAAACUACCCCCAGCAAUAACUAGUCCAUAGUAGCAGAAUCAUUUACUAUUCCUUUUCAAACUACCUGCUUUGUCUGAUACCUGAAGCCAA,1.17
UCAUCUCUUUUUAUAUGUCCAAACAUGGCUUUGAACUUUUAAACAGUUGCUAGUUUUACUUAGCUCUACCCUCAUGAAGUAUCUUUGCUGUUGAUCACUGACAGACACCUGUCUGUUACU,0.459
AUCCUUCUACCGUCCCCAGCCAGGGCCAAGGACCUCAGCUGUUUCACUGAGGACCUGCAUCUAAAACAAUUUUUUUAAUUGUUAUACAGGAAGAGAUGUGACUAAAACACCAUCUCAAAG,0.288
GAAUAUGAUUUGUCUAAUUUAUUAUUUUUUCUCUUGCUGAAGUACUACGCUAUGCCAAAACAGUGAUUGUUAACCAUUAAUUGAUCUGUUAUGGGCGUGGCUAUAUAUUGAAAUGCGAUU,0.45

# Series 2 — method: protein-binding microarray; form: double-stranded DNA, one strand shown; matrix: in vitro; tested at: 2200 nM top; setting: 60-bp whole probe; with: salmon DNA 0.4 mg/ml; relative to: random background probes; reading: higher = stronger binding; shared flanks, not repeated: GCCTAGCAC … GTCTTGATTCGCTTGACGCTGCTG
# Target: Interferon regulatory factor 7, full length, phosphomimetic (IRF7, Homo sapiens, UniProt Q92985, residues 1-503, S471D/S472D/S475D/S476D/S477D/S483D/S484D/S487D)
# Construct (chain): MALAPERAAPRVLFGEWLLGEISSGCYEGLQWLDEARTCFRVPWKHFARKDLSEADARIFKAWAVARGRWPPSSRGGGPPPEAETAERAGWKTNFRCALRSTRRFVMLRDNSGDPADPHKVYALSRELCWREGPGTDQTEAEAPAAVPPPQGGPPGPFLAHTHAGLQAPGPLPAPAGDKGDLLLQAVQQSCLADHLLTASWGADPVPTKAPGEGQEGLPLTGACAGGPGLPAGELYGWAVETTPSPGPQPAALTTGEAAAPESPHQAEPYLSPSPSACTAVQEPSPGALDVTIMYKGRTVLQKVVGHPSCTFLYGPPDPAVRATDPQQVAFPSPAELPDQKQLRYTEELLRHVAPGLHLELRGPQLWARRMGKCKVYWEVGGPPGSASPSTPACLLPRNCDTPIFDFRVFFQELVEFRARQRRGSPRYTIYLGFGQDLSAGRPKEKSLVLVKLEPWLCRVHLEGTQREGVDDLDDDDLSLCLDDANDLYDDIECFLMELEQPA
Strand,fitted relative affinity
TTAGGCCTGCTTCTCCTTTAGTGCTAG,0.709 z-score
TCATTGTTGTTTTTTGGACTGTGCTAG,1.29 z-score
ATATATATTATATATTTATGTGTGCTA,0.461 z-score
GACGGTCTCGGTTTAGGGACGTGCTAG,1.55 z-score
GACGGTATCGGTTTCGGCACGTGCTAG,2.68 z-score
TTAGTACTGAGACTGGATTAGTGCTAG,-0.11 z-score
GACGATTTCCGACTGGAGACGTGCTAG,0.945 z-score
TTAGAACTGGTGTATCGATTAGTGCTA,-0.0163 z-score
TCAAATTTGCTTTAGTCACTGTGCTAG,0.621 z-score
CTTGCTTGGTGTCTCTGGCCGTGCTAG,0.145 z-score

# Series 3 — target: UBE2E1 UBC core domain (UniProt P51965); method: yeast two-hybrid; matrix: yeast; setting: mostly zero background; relative to: not given; reading: higher = stronger interaction
# Sequence of UniProt P51965 (whole entry, looked up): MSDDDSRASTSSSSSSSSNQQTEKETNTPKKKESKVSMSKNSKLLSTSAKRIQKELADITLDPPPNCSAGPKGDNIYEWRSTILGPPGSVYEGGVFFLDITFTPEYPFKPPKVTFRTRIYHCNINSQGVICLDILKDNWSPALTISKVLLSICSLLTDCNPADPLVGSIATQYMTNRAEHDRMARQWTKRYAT
# B1: ARK2C RING domain (UniProt Q6ZSG1); chain EGEESDTDEKCTICLSMLEDGEDVRRLPCMHLFHQLCVDQWLAMSKKCPICRVDIETQLGAD
# B2: TRIM63 RING domain (UniProt Q969Q1); chain PMENLEKQLICPICLEMFTKPVVILPCQHNLCRKCANDIFQAANPYWTSRGSSVSMSGGRFRCPTCRHEVIMDRHGV
# B3: TRIM8 RING domain (UniProt Q9BZR9); chain WKNCFEEELICPICLHVFVEPVQLPCKHNFCRGCIGEAWAKDSGLVRCPECNQAYNQKPGLE
# B4: RC3H2 RING domain (UniProt Q9HBD1); chain QAAQWTEFLSCPICYNEFDENVHKPISLGCSHTVCKTCLNKLHRKACPFDQTAINTDIDVL
# B5: PHF21A RING domain (UniProt Q96BD5); chain SPTSTDGDIHEDFCSVCRKSGQLLMCDTCSRVYHLDCLDPPLKTIPKGMWICPRCQDQMLKKEEAIPW
# B6: TRIM69 RING domain (UniProt Q86WT6); chain VIQDITMELHCPLCNDWFRDPLMLSCGHNFCEACIQDFWRLQAKETFCPECKMLCQYNNCTF
Sequence,lacZ reporter activity
FASPPDSNFVCSVCHGVLKRPARLPCSHIFCKKCILRWLARQKTCPCCRKEVKRKKVVH (RNF151 RING domain (UniProt Q2KHN1)),0
EDEVSDNSAECVVCLSDVRDTLILPCRHLCLCNTCADTLRYQANNCPICRLPFRALLQIR (RNF157 RING domain (UniProt Q96PX1)),0
B1 (ARK2C RING domain),9470
B2 (TRIM63 RING domain),0
B3 (TRIM8 RING domain),0
B4 (RC3H2 RING domain),0
B5 (PHF21A RING domain),0
B6 (TRIM69 RING domain),0
DAIPSLSECQCGICMEILVEPVTLPCNHTLCKPCFQSTVEKASLCCPFCRRRVSSWTRYH (RNF168 RING domain (UniProt Q8IYW5)),0

# Series 4 — method: RNA Bind-n-Seq; form: RNA; matrix: in vitro; tested at: 200 nM; setting: whole 134-nt RNA, ends assumed; with: 150 mM KCl; relative to: input library; reading: higher = stronger binding
# Target: Fragile X messenger ribonucleoprotein 1, C-terminal low-complexity region (Fmr1, Mus musculus, UniProt P35922)
# Shared flanks, not repeated: GGGAGUUCUACAGUCCGACGAUC … UGGAAUUCUCGGGUGUCAAGG
Strand,log2 enrichment
UGGAGCUACAGAUGGUGUCCUUCCUGCCAGGUGUGUGUGGAGGCCAGUAUGAAGCUGAAAAAGCAGGUGACAGUGUGUGGGGCUGCCAUC,-0.231
GUCCUGUGCUACACAUCGUAUGUACCGAAUCGGGGAAAAAAGGAAAAAAGGAAAAAAGGAAAGUAUUAUGUUACGCCGUUCGGAUCUGCA,-0.734
UGGCCCUGGUGGCAAGCGGGGAGGAAGAGGUGGCCUCAUGGAUCGUGGUGGUCCCGGUGGAAUGUUCAGAGGUGGCCGUGGUGGAGACAG,0.035
GUCCUGUGCUACACAUCGUAUGUACCGAAUCGGGGAAAAAAAGGGGUUUGGGGAGGGGAAAGUAUUAUGUUACGCCGUUCGGAUCUGCAC,0.501
CCUCAAGUCCUGUGCUACACAUCGUAUGUACCGAAUCGGGAGGGGAGGAGGGGAAAGUAUUAUGUUACGCCGUUCGGAUCUGCACUUCCA,1.23
UCAAGUCCUGUGCUACACAUCGUAUGUACCGAAUCGGGGCCGGCCGGGGCCGGGGAAAGUAUUAUGUUACGCCGUUCGGAUCUGCACUUC,-0.367
CACAGACAACACGCACCCACACAGACACAGAGGGAAGGGGUUGGGAUGGGGACAGGGUGCACAGCAGGGGGGGGUAGGACCCCAGCCCCU,1.22
GCAGGAAGUAAAAACAAAUGGAAAUGCUUCGGAUAGUGGCAGGGGUGGGGGUUGCUAAGGAGAGGGUGGGAUGGGAGUGGGUAAAGAGUU,0.158
UGUGCUACACAUCGUAUGUACCGAAUCGGGGUUUUUUUGGGGAAAAAGGGGAAAAAAAGGGGAAAGUAUUAUGUUACGCCGUUCGGAUCU,-0.0327
CAAGUCCUGUGCUACACAUCGUAUGUACCGAAUCGGGAAAAAGGGAGGGAAAGGGAAAGUAUUAUGUUACGCCGUUCGGAUCUGCACUUC,0.641
GCAGGAAGUAAAAACAAAUGCAAAUGCUUCGGAUAGUGGCAGGGGUGGGGGUUGCUAAGGAAAGGGUGGGAUGGGAGUGGGUAAAGAGUU,-0.0989

# Series 5 — method: universal PBM; form: double-stranded DNA, one strand shown; matrix: in vitro; tested at: not given; reading: higher = stronger binding
# Target: Sal-like protein 4, full length isoform B (SALL4, Homo sapiens, UniProt Q9UJQ4-2, residues 1-616)
# Setting: 8-mer, flanks averaged, mean of replicates
Strand,E-score
AATAGCTG,0.0431
AATTCACA,0.201
CACACGTC,0.00074
AGGAGCGA,-0.0873
GGGGAATA,0.113
CGAGGGTA,-0.137
ATGGGGAG,-0.103
AGCGCTGG,-0.137
CATCCGTC,-0.0441
GATTCGCA,-0.1
GCAGAAAA,0.0517
CCGCATTA,0.0989

# Series 6 — method: protein binding microarray; form: double-stranded DNA, one strand shown; matrix: in vitro; tested at: not given; relative to: not given; reading: higher = stronger binding
# Target: Histone acetyltransferase KAT6A, both winged helices, GST fusion (KAT6A, Homo sapiens, UniProt Q92794, residues 1-181)
# Setting: 8-mer, flanks averaged, mean of 2 arrays, mostly near background
# Construct (chain): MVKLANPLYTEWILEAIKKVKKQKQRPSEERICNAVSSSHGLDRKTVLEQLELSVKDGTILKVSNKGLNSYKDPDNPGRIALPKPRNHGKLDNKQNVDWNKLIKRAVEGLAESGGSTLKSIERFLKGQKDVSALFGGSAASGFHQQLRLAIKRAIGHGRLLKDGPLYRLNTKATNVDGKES
Strand,E-score
CAAAGTGG,-0.266
GCACGGAA,0.218
AGAGCCGA,0.166
GCTTACGA,-0.00509
ACGGGTCC,0.214
GCGTCGAC,0.0845
CGGAATCC,0.0829
CTCTGTAA,-0.0393
GGTTACCA,0.0837
GCGCCTCA,0.243
GTTCTACA,-0.0624
GTGCGCAA,0.173
ACACGGAG,0.258
CTGGACTA,-0.204
CTGGTATC,-0.0887
CAAGTCGG,0.00741

# Series 7 — target: CCNA2, cyclin fold, Cln2 fusion (human); method: yeast growth competition, sequencing; matrix: yeast; setting: strong parent motif; relative to: not given; reading: higher = stronger binding
# Starting sequence: MICAL3 docking peptide (human); LQLRRQLSFSEDS; partner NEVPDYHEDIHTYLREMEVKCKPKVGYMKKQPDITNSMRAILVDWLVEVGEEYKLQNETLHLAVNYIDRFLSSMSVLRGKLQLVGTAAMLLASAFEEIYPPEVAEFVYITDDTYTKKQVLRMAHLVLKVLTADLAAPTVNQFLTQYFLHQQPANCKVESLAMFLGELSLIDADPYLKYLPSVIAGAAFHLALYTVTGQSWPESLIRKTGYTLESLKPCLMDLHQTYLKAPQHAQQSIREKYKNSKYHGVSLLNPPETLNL
Variant,normalised enrichment score
LMLRRQLSFSEDS [Q2M],3.22
LQLRRQLYFSEDS [S8Y],2
LQLRRQFSFSEDS [L7F],-0.215
LQLRRQLSMSEDS [F9M],0.873
LQLRRQLSKSEDS [F9K],0.437
LQLRHQLSFSEDS [R5H],0.332
LQLRRQLSYSEDS [F9Y],2.33
LQLRRQLRFSEDS [S8R],3.04
LQLIRQLSFSEDS [R4I],0.59
LQLRRQLSFHEDS [S10H],2.69
LQLRMQLSFSEDS [R5M],0.402
LQLRRQLSSSEDS [F9S],-0.541

# Series 8 — method: protein-binding microarray; form: double-stranded DNA, one strand shown; matrix: in vitro; tested at: not given; reading: higher = stronger binding
# Target: Protein max, full length (MAX, Homo sapiens, UniProt P61244-2, residues 1-151)
# Setting: k-mer, scored over probes, only values ≥0.25
Strand,E-score
CCATGGGG,0.376
CACATGAA,0.358
ACGCGGAT,0.261
ATGGTCAC,0.29
ATGTGTTA,0.337
AATACATG,0.286
GCGTACAC,0.306
GGTGGGTA,0.283
GCGCACGC,0.421
ATGGCTGC,0.25
GCATGCTA,0.406
CCGTGTGC,0.299
GTGACAGA,0.276
AACACGCG,0.457

# A few entries again (series 5):
Strand,E-score
AGGAGCGA,-0.0873
GATTCGCA,-0.1
CCGCATTA,0.0989
CGAGGGTA,-0.137
AATTCACA,0.201
GGGGAATA,0.113
ATGGGGAG,-0.103
AATAGCTG,0.0431
